{"data": "Measurements gathered from unrelated publications", "note": "Numbered parts are unrelated; each lists some results of a single study."}
{"data": "Set 1", "target": "Prothrombin, mature alpha-thrombin (F2, Homo sapiens, UniProt P00734)", "method": "aptamer microarray, sandwich", "molecule type": "DNA with 2'F-ANA", "medium": "in vitro", "tested at": "200 nM", "notes": "whole 15-mer aptamer, many near background", "added": "Cy3 exosite-II aptamer, 400 nM", "direction": "higher = stronger binding", "strand": "GGTTGGTGTGGTTGG"}
{"Modification": "2'F-ANA at 1 2 3 4 5 10 11 15", "mean fluorescence intensity [a.u.]": 46.5}
{"Modification": "2'F-ANA at 2 9 11 14", "mean fluorescence intensity [a.u.]": 144}
{"Modification": "2'F-ANA at 1 2 3 11 12 14 15", "mean fluorescence intensity [a.u.]": 132}
{"Modification": "2'F-ANA at 1 4 5 9 10 13", "mean fluorescence intensity [a.u.]": 43.5}
{"Modification": "2'F-ANA at 1 2 3 6 7 9 10 11 12 13 14 15", "mean fluorescence intensity [a.u.]": 58.4}
{"Modification": "2'F-ANA at 3 4 6 7 9 10 13 15", "mean fluorescence intensity [a.u.]": 193}
{"Modification": "2'F-ANA at 1 2 7 12 13 15", "mean fluorescence intensity [a.u.]": 279}
{"Modification": "2'F-ANA at 1 14", "mean fluorescence intensity [a.u.]": 56.2}
{"Modification": "2'F-ANA at 1 5 6 7 10 13 15", "mean fluorescence intensity [a.u.]": 49.1}
{"Modification": "2'F-ANA at 1 4 5 6 7 9 10 12 14 15", "mean fluorescence intensity [a.u.]": 49.1}
{"Modification": "2'F-ANA at 1 2 3 5 7 8 11 13 15", "mean fluorescence intensity [a.u.]": 54.4}
{"Modification": "2'F-ANA at 6 7 8 12 14", "mean fluorescence intensity [a.u.]": 277}
{"Modification": "2'F-ANA at 2 3 5 9 11 14", "mean fluorescence intensity [a.u.]": 71.6}
{"Modification": "2'F-ANA at 2 5 7 8 9 11 15", "mean fluorescence intensity [a.u.]": 68.8}
{"Modification": "2'F-ANA at 2 3 4 8 13 14 15", "mean fluorescence intensity [a.u.]": 257}
{"Modification": "2'F-ANA at 1 3 5 6 7 9 15", "mean fluorescence intensity [a.u.]": 67.2}
{"Modification": "2'F-ANA at 1 2 3 6 7 8 9 10 11 12 14 15", "mean fluorescence intensity [a.u.]": 63.1}
{"Modification": "2'F-ANA at 3 4 5 6 8 11 12", "mean fluorescence intensity [a.u.]": 198}
{"Modification": "2'F-ANA at 3 4 6 8 10 11 13 14 15", "mean fluorescence intensity [a.u.]": 132}
{"Modification": "2'F-ANA at 2 3 4 6 11 15", "mean fluorescence intensity [a.u.]": 486}
{"data": "Set 2", "target": "RNA binding protein fox-1 homolog 2, RRM domain, GST-SBP tag (RBFOX2, Homo sapiens, UniProt O43251-10, residues 100-194)", "method": "RNA Bind-n-Seq", "molecule type": "RNA", "medium": "in vitro", "tested at": "365 nM", "notes": "natural RNA segment, single round, ends assumed", "relative to": "no-protein control", "direction": "higher = stronger binding", "constant ends, left off below": "GGGAGUUCUACAGUCCGACGAUC … UGGAAUUCUCGGGUGCCAA", "Construct (chain)": "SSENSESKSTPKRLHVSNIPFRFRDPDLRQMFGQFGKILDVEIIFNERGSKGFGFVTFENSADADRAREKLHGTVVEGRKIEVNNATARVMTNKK"}
{"Strand": "UAGGAUACAGGGCAGGGAUAAAUACAGUGCAUGUCUGCUUCAAUUAGCAGAUGCCGCAACUCCACACAGUGUGUAAAAUAUAUACAACCAAAAAUCAGCUUUUGCAGGUC", "RBNS enrichment (R)": 0.889}
{"Strand": "GCCAUGAGCAUGUACAACCUCUGGAGCUAGAAGCUCCUCAGGAAAGCCAGUUCUCCAAGUUCUUAACCUGUGGCACUGAAAGGAAUGUUGAGUUACCUCUUCAUGUUUUA", "RBNS enrichment (R)": 0.413}
{"Strand": "CAGGCUGGCCUCGAACUCAGAAAUCGGCCUGCCUCUGCCUCCCGAGUGCUGGGAUUAAAGGCGUGCGCCACCACGUCUGGCUCCAUUUCUAAGUCUUGAACCAACUGACU", "RBNS enrichment (R)": 0.219}
{"Strand": "AUAUAUACAUAUAUAUGCACCUAUAUAACGUGUAUAUAUAUAAAUGCAGCCAUUGCUAUUGCAAUUCAUUUAAUAAAGCUUUAGUUUAAAAACCAAGCAUUGUGUACAGG", "RBNS enrichment (R)": 0.353}
{"Strand": "GGGUUUUCAGAGUGAUUUUCAGGUUUAAUUUCACUGCCUUUCAUAAGGGUAAAGUUUCACAGCUGACAUUAGCCUGAGGAUUAGCACUAAAGAGCUGUGUUUUCAUAGCA", "RBNS enrichment (R)": 0.598}
{"Strand": "UUUCCACUCUGCACAUUGUAGAGGGGACACCGAAGGCCCAUGGGUCCCUAAUUAAAGAAGUUGAGUGAAUUUGCCUUCGUUCAACCAGGGACCUAUCUCACUCCCUCCCA", "RBNS enrichment (R)": 0.252}
{"Strand": "UGGGCUCCAAAUUAGCUUUACUGAUUGAACAUCCACAGAGAUGGAGGCAUUUAAUACAAAACCAGGAACUCCGAAUCCAUUGCUCUUUCCUCCUUUGCUUUCACUUCUUA", "RBNS enrichment (R)": 0.731}
{"Strand": "CCUUCCAGAGAAAGGAUUCCUUCCCAGCCUCCAGGCUGGUGUCUCAUGAGGUGAGGAGGCUGGCCCAGAAGGAAGGGGACGUUAGGUGGUGAAGCAGGCUCCCCUGGGCC", "RBNS enrichment (R)": 0.293}
{"data": "Set 3", "target": "Ras GTPase-activating protein-binding protein 1, full length (G3BP1, Homo sapiens, UniProt Q13283)", "method": "RNA Bind-n-Seq", "molecule type": "RNA", "medium": "in vitro", "tested at": "200 nM", "notes": "whole 134-nt RNA, ends assumed", "added": "150 mM LiCl", "relative to": "input library", "direction": "higher = stronger binding", "library": "7-deaza-guanosine replaces G", "constant ends, left off below": "GGGAGUUCUACAGUCCGACGAUC … UGGAAUUCUCGGGUGUCAAGG", "UniProt Q13283, sequence (whole entry, looked up)": "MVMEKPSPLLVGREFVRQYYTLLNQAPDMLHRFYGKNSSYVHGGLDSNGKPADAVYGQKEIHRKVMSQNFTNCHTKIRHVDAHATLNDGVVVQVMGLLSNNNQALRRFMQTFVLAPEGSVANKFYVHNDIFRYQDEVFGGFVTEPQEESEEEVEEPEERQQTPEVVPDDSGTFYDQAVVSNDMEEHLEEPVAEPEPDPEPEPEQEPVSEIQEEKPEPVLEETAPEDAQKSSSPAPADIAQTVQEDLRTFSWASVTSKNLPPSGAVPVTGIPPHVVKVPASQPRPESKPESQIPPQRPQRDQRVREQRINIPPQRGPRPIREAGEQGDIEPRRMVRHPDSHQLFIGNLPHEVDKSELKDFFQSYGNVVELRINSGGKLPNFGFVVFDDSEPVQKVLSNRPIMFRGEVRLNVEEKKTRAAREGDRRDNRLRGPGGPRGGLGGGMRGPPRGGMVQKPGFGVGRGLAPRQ"}
{"Strand": "GUCCUGUGCUACACAUCGUAUGUACCGAAUCGGGGUGGGGUUUUUGGGGUUUUUGGGGAAAGUAUUAUGUUACGCCGUUCGGAUCUGCAC", "log2 enrichment": 0.459}
{"Strand": "AAGUCCUGUGCUACACAUCGUAUGUACCGAAUCAAACCCCCAAAUUUAAACCCAAAAAAGUAUUAUGUUACGCCGUUCGGAUCUGCACUU", "log2 enrichment": 1.56}
{"Strand": "CAAGUCCUGUGCUACACAUCGUAUGUACCGAAUCGGAGGAAAAAAAGGUUUUUGGAAAGUAUUAUGUUACGCCGUUCGGAUCUGCACUUC", "log2 enrichment": -1.02}
{"Strand": "UGGCCCUGGUGGCAUGCGGGGAGGAAGAGGUGGCCUCAUGGAUCGUGGUCGUCCCGGUGGAAUGUUCAGAGGUGGCCGUGGUGGAGACAG", "log2 enrichment": 0.763}
{"Strand": "CUCAGACAACACGCACCCACACAGACACAGAGGGAAGGGGUUGGGAUGGGGACAGGGUGCACAGCAGGGCGGGGUAGGACCCCAGCCCCU", "log2 enrichment": -0.982}
{"Strand": "AGUCCUGUGCUACACAUCGUAUGUACCGAAUCGGAAAAAAAGGUUUUUGGAAAAAGGAAAGUAUUAUGUUACGCCGUUCGGAUCUGCACU", "log2 enrichment": -2.4}
{"Strand": "CCCAUUCCAAGAUUUGCUGUUGGCAUUGUAAUAGGAAGAAAUGGAGAGAUGAUCAAAAAAAUACAAAAUGAUGCUGGUGUUCGCAUUCAG", "log2 enrichment": -0.985}
{"Strand": "GUCCUGUGCUACACAUCGUAUGUACCGAAUCGGGGUGGGGUUUUUUUGGGGUUUGGGGAAAGUAUUAUGUUACGCCGUUCGGAUCUGCAC", "log2 enrichment": 0.495}
{"data": "Set 4", "target": "Histone acetyltransferase KAT6A, winged helix 2, GST fusion (KAT6A, Homo sapiens, UniProt Q92794, residues 85-181)", "method": "protein binding microarray", "molecule type": "double-stranded DNA, one strand shown", "medium": "in vitro", "tested at": "not given", "notes": "8-mer, flanks averaged, mean of 2 arrays, mostly near background", "relative to": "not given", "direction": "higher = stronger binding", "Construct (chain)": "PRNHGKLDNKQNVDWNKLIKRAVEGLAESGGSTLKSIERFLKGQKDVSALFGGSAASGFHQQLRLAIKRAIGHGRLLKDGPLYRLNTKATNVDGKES"}
{"Strand": "CTTCGCAC", "E-score": -0.0375}
{"Strand": "AGCATTAT", "E-score": 0.066}
{"Strand": "GAGCCTCA", "E-score": -0.126}
{"Strand": "ACGGACCG", "E-score": 0.0423}
{"Strand": "AGATAGAC", "E-score": -0.00947}
{"Strand": "CACTTCGG", "E-score": 0.0995}
{"Strand": "CCCGGCGG", "E-score": 0.306}
{"Strand": "CTATTGGA", "E-score": -0.0207}
{"Strand": "ATGACAAA", "E-score": -0.0164}
{"Strand": "GTTAAACA", "E-score": 0.0141}
{"Strand": "AACGCTGT", "E-score": -0.121}
{"Strand": "GCAGACAA", "E-score": -0.0459}
{"Strand": "CCTTAAGA", "E-score": -0.152}
{"Strand": "ACCTGTAT", "E-score": -0.11}
{"Strand": "CGGTGAAG", "E-score": -0.0396}
{"Strand": "CTCCAGTA", "E-score": -0.0159}
{"Strand": "AGCGTTAA", "E-score": -0.131}
{"Strand": "CGCAGATA", "E-score": 0.0456}
{"Strand": "ACAGAAAT", "E-score": 0.0256}
{"Strand": "ACACCCAA", "E-score": 0.0178}
{"Strand": "ATGAATCA", "E-score": 0.0688}
{"Strand": "ATCTCGAA", "E-score": 0.139}
{"Strand": "CGGATATC", "E-score": 0.099}
{"Strand": "CAGCCGGC", "E-score": 0.201}
{"Strand": "AGTCCGAT", "E-score": -0.0383}
{"note": "Some of these lines once more (set 4):"}
{"Strand": "GAGCCTCA", "E-score": -0.126}
{"Strand": "ACGGACCG", "E-score": 0.0423}
{"Strand": "AGATAGAC", "E-score": -0.00947}
{"Strand": "CACTTCGG", "E-score": 0.0995}
{"Strand": "CCCGGCGG", "E-score": 0.306}
{"Strand": "CTATTGGA", "E-score": -0.0207}
{"Strand": "ATGACAAA", "E-score": -0.0164}
